Experimental data of several laboratories.
A part holds a random share of what one study measured.

Sample 1
Target: RNA binding protein fox-1 homolog 2, RRM domain, GST-SBP tag (RBFOX2, Homo sapiens, UniProt O43251-10, residues 100-194)
Technique: RNA Bind-n-Seq
Molecule type: RNA
Medium: in vitro
Concentration: 365 nM
Setting: natural RNA segment, single round, ends assumed
Baseline: no-protein control
Reading: higher = stronger binding
Constant ends, left off below: GGGAGUUCUACAGUCCGACGAUC … UGGAAUUCUCGGGUGCCAA
Residues (chain): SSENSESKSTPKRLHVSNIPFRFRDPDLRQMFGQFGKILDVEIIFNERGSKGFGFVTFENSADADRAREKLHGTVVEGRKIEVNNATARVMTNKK
Strand	RBNS enrichment (R)
CCCAUGUGUUGAAGUGCACGCCUCAUCUUUAGCAGCUGCCCCAAAGAGGCCAGAUCCUGGCAUUUUGCACACAUUUUGGUGUAUAUACAGUGUAUCACUCAGUAAGAAUG	5.64
UCACUUGGUUUCAGCCAUAGUUCACCUUCCCUGUUCCAGGUUUAUUUAAUUCCAAAGGUGAGAGUUGGAGUGAGAUGUCUUCCAUAUCUAUACCUUUGUGCACAGUUGAA	0.338
CAAGGGAAUAACUAGGCUGGUUAAAAGAGUCAGGGCUACUGGAGCCAAGGUGGGGACCUUUGAGGCUAGGUGGGGGUCACCUGCUGCUUCUGAGCUUGGAUUAGAGAAAG	1.07
CAACAGAAGGAAAAGGCUCUUUUCCUUGGAGAUUUUCAAGUUGAAAAAGUACAGCUGCUUGGAUGGAGUUUCUCUCAUCAGAAUAGAAAUAUGCUAGGUGGUCUUCAAGA	0.333
UGAGCCCCUUACCCAUAGGGUUGGGGGUGGGAAGAGAAGCAUAUUUUUUUGCCAUUCCGGAAGCAAUCCAUUUUUAUUCACUUGUGUGUCAUGUAAUGGUCUUUGGCAGG	0.297
CAAUUGAUAUCAAAAGGUUUCUCCUGUAAUAUUUUAUCCCUGGACUUGUCAAGUGAAUUCUUUGCAUGUUCAAAACGGAAACCAUUGAUUAGAACUACAUUCUUUACCCC	1.36
AUUGCUUUAUUCACACUUUUAUUGUGGCUGAAUUUUUGUGCCUAUCUAUAAAACACACUUUCAAAUUAUUUGAAUUACCAAGACGUCUGCUUUUGUGACAGUCAGAAAAC	0.402
CAGACCUUACUGCUACUGCUGCUGCCAUUAAUGCUGUGCUCACUAUCUUGUCCAGGAUUUUAAGGAUGUCAGACUGCUGUAGAUGACUCAAUAAAUGUUUUGCCAUUUUU	0.592
UUGGAAGCCAGGUUUCCUUACACUAAGGUAGGUCUAGGUUCUUCGGAAACUAAGAUAAACUUAGUGUAUCUGAGAAGAAUACCUGUCCAUCUUGCUACCCGCUUUUGCCU	0.262
GGUAUUUUUACUUUUAUUUUUUGAUCUGAACUGGGAGCUAUAUUUAGCCCUCUGCCUCUCCAAAGCAUCAGAACCACCUUCAGUCUGGAGAAGGGGAAGCCUCUUGGAGA	0.729
AGCUUCUUAAUUCCAAUACUAAUUUGCUUUGCUGACCAAAUACCUGCCUGGUACCAGAAGACAGGGAGGCAGAGACUGGGAGCCGUGAUGUGCCCUUGGGCUGAGCCCUA	0.42
GUGCCUUGCCAGAGAGCUUACGAUCUAUAUCUGCUGCUUCAGAGCCUUCCCUGAGGAUGGCUCUGUUCCUUUGCUUGUUAGAAGAGCGAUGCCUUGGGCAGGGUUUCCCC	0.398

Sample 2
Target: Hepatocyte nuclear factor 3-alpha (Foxa1, Mus musculus, UniProt P35582, residues 1-468, full length assumed)
Technique: EMSA with sequencing
Molecule type: double-stranded DNA, one strand shown
Medium: in vitro
Concentration: 10 and 20 nM
Setting: whole designed probe, mean of two concentrations, ends assumed
Baseline: negative control set to 0
Reading: higher = stronger binding
Constant ends, left off below: GTGAGCGGTGCCCATTGATGGGGAAC … TTTCACTGGGATCGTGGGGAC
Construct (chain): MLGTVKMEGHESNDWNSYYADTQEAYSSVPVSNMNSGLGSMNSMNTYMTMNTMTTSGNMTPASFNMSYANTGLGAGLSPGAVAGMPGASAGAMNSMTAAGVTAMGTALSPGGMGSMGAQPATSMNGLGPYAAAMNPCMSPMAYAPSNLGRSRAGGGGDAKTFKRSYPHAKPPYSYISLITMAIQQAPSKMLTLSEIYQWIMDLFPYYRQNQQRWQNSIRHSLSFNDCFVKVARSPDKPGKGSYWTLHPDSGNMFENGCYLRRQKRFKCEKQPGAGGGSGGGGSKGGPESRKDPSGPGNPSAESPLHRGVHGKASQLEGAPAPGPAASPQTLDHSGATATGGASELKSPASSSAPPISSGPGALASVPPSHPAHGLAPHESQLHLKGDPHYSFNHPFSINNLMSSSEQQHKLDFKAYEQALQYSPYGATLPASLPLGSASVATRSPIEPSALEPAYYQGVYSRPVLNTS
Strand	normalised bound fraction [ratio]
GCAGACATTGGGCCCTACGTGGCACCTGGCTACTGTGCATGGTTGCAGGTCAGGGCAGGCCGGGCCACAGGGCAGGGCCACCCTCCCATTCCCATGTTTACACTGAGCATTTCCTCTGCCTGTGTCTCTTGGGCTGGGGTCTGTGATACAAGTCCGGGAGGCCAGAGACGCCCACGGACAGTGCGTGGGGCTT	0.273
GATTTTTGGGGATTTTTGAAAATAGCCCTATGTCTTGGATATGAGTCACAAATTGCCCCCCCCCCCACCATTTCGTCATTTGTCTCCAAGCTCAGATTACATTGGAGATTGCCGTGCAGAAGTTTTTCTTTAATGTAATAAAATGTAGCCATCTTTTTTAAAATGACCTCTGGACTTCATGTGTTTGGAGTTT	0.186
GCATGAGACAGCATTTCTTCTTGTCCTCGGGGCCTGCAGGAAGTTTTTAAGTAATCTGCTTTTGTGCCTCTTCCAAATCTCCTCCTATGACCCTGTTTACCTTACATCACAAGAAACAATCAATAAAAGTGGTTTGTGTTCGTGAGTGCCGTGTGTTTGACAAAGGCGTTGATAACTGAGAGCTGGTAGTGGA	0.176
TCTTTCCCCTTCTATGACTTGCAAATTTATATTTCTCTTAACAACCATAAAAACAACTACAGTTGCTGAAGAAATAATGACTCAGAAAGCAAAAGATTACTTTTAAATATGAGCAACTTTACATCTAATGCCAATGCCTGATAAAGAGAAATTTATAGTAATCTAAAAATATGGCCAAAATCACTTATTTAGC	0.00159
GTAAGGACCTCAATTTATTTTTTTCCCTAAGAGCTAATGAATTTTCCCAGTATCACCCACTGAGCCGTCCTCCCCTCTTTGTGATGCCACGTTAGATTACCTTGTGCTGACTCATATGTTCTGCAACATTCAGCTATTTGTCAATTCTTATGCCAGTACTTCCACTGTTACCATCATCAATTTAAAGATTACT	-0.0251
TTTCAGTAGGTGGTAGTGGGTTCAGGAAATCTGTGTTTTTACCAAAGTATCCCCTACTATAGAATTAATTTTTGTGTTCCCCCCTCATTCATAAGATGACATTTAAACCTCCACTGTGATGATACCAGGTGGCTTTGGGAGGTGATTAGGTGATAACGATGAAGCCCTCATAAATGTGATTACTGACCTAATA	-0.0632
AATTCACATAAGTTCATTTTTATTGACTTAGTCAGTGCCAGCACTTATACCCATTTTCTACTTATCGGTGACATGAGTTAAGACACCTGACAATGTAAACAGCAATATGATCTCATTTGTGTGGATGATTTAAAATTTTATGTAAAGTTGTGATTTTTCAAGCCATCCTCAGTTTAGGGATATCTCCTTGAGC	0.447
GTCATTTATTTCATGTTGTCCTGAGATTGGATCTAAACTTTGAGCTCCTAATCATTGCTCAGATTGTGTGGCCTCGTAAGATTGTGCGTAATAAGTAAACAAGCATCTGTACACTTGTTAACTTAATGAGCTTCTGTATGTGACACTTTAAGCCTTTTTAAAAATTAAGTGCTGGGCTATGCTTGGTGTCTCA	0.414

Sample 3
Target: Prothrombin, mature alpha-thrombin (F2, Homo sapiens, UniProt P00734)
Technique: aptamer microarray, sandwich
Molecule type: DNA with 2'F-ANA
Medium: in vitro
Concentration: 200 nM
Setting: whole 15-mer aptamer, many near background
With: Cy3 exosite-II aptamer, 400 nM
Reading: higher = stronger binding
Strand: GGTTGGTGTGGTTGG
Modification	mean fluorescence intensity [a.u.]
2'F-ANA at 3 4 5 7 10 14	54.6
2'F-ANA at 1 2 5 6 7 8 10 11 13 14 15	50.7
2'F-ANA at 2 4 5 7 10 12 14	56
2'F-ANA at 1 4 5 7 8 10 11 12 13 14 15	47.1
2'F-ANA at 1 3 4 5 9 10 11 13 14 15	47
2'F-ANA at 6 7 8 10	181
2'F-ANA at 1 5 8 10 12 13 14 15	44.6
2'F-ANA at 2 3 8	948
2'F-ANA at 3 4 8 9 12 14	385
2'F-ANA at 1 2 3 4 5 8 9 10 11 12	51.4
2'F-ANA at 1 2 4 5 7 8 9 12 13 15	119
2'F-ANA at 1 10 14	45.9
2'F-ANA at 2 3 4 5 7 8 10 11 14 15	64.4
2'F-ANA at 2 5 7 10 13 14 15	43.9
2'F-ANA at 4 5 6 8 9 12	159
2'F-ANA at 1 2 3 4 6 7 10 13	51
2'F-ANA at 3 4 5 7 10 12 14 15	47.5

Sample 4
Target: Histone acetyltransferase KAT6A, both winged helices, GST fusion (KAT6A, Homo sapiens, UniProt Q92794, residues 1-181)
Technique: protein binding microarray
Molecule type: double-stranded DNA, one strand shown
Medium: in vitro
Concentration: not given
Setting: 8-mer, flanks averaged, mean of 2 arrays, mostly near background
Baseline: not given
Reading: higher = stronger binding
Construct (chain): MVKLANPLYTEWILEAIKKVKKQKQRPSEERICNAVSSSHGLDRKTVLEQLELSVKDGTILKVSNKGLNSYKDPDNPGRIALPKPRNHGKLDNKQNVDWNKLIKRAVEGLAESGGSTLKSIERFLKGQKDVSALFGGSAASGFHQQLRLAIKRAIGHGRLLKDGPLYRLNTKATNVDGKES
Strand	E-score
CACTCCCA	-0.15
AGTATTTG	-0.181
CCTTTGTA	-0.203
CGCGGTAC	0.371
CGTGTCCC	0.122
GCTACCTA	-0.136
AGCTTCGG	-0.00758
ACTAGTAG	0.00872
GAAACACC	-0.00878
ACTGTGAG	-0.0853
AATGTTAG	-0.0404
GACATTGA	0.047
CGCCCATC	0.0476
AAATCGAG	-0.125
GCACATCA	0.0538
GATCCGTA	0.218
CCTAGCTA	-0.222
CCCCGAGC	0.0365

Excerpt of the above (sample 3):
Modification	mean fluorescence intensity [a.u.]
2'F-ANA at 1 4 5 7 8 10 11 12 13 14 15	47.1
2'F-ANA at 1 3 4 5 9 10 11 13 14 15	47
2'F-ANA at 6 7 8 10	181
2'F-ANA at 1 5 8 10 12 13 14 15	44.6
2'F-ANA at 2 3 8	948
2'F-ANA at 3 4 8 9 12 14	385
2'F-ANA at 1 2 3 4 5 8 9 10 11 12	51.4
2'F-ANA at 1 2 4 5 7 8 9 12 13 15	119
